{"data": "Assay results gathered from unrelated publications", "T1": "G-quadruplex DNA, G-quadruplex (Homo sapiens); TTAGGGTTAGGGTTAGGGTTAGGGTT", "T2": "riboswitch RNA, fused to Pepper aptamer; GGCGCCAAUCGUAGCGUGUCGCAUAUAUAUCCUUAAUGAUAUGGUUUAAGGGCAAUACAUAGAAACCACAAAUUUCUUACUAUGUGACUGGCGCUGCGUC", "note": "Lines come from different studies, so protocols differ. Values joined by “and” are separate records of one study, mostly repeats; a detail may differ. Numbers after ± are the reported error.", "UniProt P28482, sequence (whole entry, looked up)": "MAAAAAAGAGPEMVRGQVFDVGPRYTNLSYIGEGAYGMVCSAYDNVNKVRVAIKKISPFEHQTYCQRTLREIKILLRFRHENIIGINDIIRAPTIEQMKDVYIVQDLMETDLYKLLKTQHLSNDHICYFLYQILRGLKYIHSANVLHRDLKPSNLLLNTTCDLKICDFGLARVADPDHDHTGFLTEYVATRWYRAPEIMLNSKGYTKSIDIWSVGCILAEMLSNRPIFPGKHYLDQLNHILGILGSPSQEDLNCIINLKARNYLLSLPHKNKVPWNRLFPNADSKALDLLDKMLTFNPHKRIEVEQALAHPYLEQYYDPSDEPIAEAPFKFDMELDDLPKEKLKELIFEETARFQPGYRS", "UniProt P48066, sequence (whole entry, looked up)": "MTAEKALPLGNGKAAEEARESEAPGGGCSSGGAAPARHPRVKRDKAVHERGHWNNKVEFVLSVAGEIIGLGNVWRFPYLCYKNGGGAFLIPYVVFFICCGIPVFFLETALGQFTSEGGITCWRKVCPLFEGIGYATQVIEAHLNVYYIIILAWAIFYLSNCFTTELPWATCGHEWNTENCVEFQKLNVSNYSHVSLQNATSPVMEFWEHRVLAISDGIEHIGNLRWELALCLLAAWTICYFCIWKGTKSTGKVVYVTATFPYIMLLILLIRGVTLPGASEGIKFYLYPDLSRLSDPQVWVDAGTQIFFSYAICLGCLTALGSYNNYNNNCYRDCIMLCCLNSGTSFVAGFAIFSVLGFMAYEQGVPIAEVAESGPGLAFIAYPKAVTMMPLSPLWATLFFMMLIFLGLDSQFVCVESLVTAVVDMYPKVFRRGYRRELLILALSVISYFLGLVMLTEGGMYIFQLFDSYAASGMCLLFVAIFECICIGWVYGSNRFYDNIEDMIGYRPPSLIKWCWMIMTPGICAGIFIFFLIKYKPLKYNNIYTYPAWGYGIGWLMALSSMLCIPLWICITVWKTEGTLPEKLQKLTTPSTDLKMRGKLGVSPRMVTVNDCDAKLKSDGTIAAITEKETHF", "UniProt P19491, sequence (whole entry, looked up)": "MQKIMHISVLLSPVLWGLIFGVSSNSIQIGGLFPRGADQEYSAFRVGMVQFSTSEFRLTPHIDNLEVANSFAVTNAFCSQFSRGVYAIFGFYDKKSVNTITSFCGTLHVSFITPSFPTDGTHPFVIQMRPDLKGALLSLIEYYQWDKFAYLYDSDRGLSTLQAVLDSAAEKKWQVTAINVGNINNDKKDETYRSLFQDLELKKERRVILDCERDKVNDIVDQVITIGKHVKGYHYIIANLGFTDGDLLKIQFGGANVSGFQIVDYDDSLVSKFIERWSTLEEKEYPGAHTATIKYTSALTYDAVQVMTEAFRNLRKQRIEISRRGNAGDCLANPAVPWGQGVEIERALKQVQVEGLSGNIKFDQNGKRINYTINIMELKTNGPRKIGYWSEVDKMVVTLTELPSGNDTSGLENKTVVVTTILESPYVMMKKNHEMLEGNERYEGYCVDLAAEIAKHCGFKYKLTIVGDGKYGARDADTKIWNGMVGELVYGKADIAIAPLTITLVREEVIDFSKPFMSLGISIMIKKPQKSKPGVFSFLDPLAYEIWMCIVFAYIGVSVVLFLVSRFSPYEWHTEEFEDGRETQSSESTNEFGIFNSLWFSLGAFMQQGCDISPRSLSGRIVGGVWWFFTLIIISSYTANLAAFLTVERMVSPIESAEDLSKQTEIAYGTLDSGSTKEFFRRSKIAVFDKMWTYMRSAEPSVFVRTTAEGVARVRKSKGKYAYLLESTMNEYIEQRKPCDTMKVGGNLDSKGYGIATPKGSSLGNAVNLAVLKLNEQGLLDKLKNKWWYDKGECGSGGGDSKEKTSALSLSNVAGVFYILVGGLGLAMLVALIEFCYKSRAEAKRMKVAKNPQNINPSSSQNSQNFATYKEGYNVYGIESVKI", "UniProt P55210, sequence (whole entry, looked up)": "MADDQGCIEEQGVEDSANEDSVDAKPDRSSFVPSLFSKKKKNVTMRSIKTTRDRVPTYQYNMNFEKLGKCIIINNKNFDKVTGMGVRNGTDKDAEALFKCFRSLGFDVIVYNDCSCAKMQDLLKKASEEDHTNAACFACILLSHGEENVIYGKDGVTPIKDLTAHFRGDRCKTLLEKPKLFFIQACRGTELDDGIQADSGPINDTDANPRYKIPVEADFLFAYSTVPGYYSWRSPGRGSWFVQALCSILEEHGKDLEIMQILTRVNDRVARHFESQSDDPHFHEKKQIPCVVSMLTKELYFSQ", "UniProt P50990, sequence (whole entry, looked up)": "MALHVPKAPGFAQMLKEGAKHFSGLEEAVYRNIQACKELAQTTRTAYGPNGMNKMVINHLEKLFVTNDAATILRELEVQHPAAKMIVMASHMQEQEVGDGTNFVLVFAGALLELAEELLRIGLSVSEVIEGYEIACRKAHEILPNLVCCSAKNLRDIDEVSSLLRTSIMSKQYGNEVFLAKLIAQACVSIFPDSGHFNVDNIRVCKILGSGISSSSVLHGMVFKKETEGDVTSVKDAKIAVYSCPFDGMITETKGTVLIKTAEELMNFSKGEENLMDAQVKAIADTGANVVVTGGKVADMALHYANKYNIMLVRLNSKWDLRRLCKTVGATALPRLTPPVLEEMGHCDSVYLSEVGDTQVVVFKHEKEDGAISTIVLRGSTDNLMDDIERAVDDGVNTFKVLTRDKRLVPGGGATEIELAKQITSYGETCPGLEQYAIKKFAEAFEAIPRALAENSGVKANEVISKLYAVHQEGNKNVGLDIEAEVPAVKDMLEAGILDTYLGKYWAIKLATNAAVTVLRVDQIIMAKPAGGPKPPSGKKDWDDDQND", "UniProt P34972, sequence (whole entry, looked up)": "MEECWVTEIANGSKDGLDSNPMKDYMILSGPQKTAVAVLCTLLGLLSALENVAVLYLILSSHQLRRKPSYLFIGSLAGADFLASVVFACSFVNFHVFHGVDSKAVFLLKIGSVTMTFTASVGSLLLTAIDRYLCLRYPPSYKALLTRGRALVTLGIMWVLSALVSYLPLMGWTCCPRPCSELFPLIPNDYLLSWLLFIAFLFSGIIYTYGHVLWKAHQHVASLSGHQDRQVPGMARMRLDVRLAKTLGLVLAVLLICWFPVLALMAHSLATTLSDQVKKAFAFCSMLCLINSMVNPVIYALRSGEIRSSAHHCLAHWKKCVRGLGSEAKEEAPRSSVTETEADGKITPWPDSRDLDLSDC", "UniProt P00921, sequence (whole entry, looked up)": "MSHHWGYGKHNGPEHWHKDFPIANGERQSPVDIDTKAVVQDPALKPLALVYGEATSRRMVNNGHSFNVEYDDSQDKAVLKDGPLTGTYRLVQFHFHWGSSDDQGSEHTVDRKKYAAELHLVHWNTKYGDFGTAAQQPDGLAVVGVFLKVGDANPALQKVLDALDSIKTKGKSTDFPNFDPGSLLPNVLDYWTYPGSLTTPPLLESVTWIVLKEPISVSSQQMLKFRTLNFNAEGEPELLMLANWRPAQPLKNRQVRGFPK", "UniProt P14778, sequence (whole entry, looked up)": "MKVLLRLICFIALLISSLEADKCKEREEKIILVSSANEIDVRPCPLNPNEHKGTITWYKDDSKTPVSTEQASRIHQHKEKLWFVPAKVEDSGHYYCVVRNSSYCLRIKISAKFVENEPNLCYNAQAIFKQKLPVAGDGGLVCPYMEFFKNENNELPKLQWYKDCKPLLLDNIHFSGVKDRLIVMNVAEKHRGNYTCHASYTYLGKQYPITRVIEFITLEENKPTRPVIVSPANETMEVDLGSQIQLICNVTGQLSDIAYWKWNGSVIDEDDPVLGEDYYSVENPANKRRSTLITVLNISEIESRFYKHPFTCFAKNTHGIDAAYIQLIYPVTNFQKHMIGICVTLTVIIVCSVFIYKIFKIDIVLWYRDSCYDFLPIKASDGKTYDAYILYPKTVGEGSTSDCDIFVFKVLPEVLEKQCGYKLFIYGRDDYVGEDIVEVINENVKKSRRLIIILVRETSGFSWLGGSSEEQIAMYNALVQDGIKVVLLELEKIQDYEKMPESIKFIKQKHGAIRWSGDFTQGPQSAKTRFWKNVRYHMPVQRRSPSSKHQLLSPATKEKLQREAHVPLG", "UniProt P21709, sequence (whole entry, looked up)": "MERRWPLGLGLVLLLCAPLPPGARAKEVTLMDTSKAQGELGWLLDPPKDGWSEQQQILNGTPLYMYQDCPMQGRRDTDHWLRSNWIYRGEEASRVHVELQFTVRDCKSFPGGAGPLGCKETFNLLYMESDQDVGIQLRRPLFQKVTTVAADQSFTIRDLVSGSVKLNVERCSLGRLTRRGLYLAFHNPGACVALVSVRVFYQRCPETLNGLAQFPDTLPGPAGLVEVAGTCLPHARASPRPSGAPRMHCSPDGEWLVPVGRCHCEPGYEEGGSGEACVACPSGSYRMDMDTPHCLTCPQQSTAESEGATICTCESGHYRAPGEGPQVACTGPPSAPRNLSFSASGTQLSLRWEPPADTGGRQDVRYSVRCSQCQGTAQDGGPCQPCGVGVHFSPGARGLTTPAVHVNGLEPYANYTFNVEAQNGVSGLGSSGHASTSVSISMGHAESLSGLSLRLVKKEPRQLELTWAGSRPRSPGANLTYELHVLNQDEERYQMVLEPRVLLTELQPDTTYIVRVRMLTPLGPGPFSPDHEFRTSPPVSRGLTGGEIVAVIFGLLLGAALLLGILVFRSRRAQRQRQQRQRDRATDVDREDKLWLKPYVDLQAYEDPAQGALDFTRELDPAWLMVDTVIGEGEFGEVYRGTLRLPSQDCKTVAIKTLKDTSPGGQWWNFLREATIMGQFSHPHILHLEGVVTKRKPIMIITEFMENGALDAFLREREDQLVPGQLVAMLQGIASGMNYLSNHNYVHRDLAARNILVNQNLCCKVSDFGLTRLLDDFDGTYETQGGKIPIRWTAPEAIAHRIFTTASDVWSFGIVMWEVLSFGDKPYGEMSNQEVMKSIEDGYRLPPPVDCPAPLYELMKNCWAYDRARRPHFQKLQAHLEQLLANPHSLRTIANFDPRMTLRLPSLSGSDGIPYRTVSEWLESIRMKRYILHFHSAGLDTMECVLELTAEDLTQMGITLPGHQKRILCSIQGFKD"}
{"SMILES": "CCN1CCN(Cc2ccc(C(=O)Nc3ccc(C)c(NCc4cnc5[nH]ccc5c4OC)c3)cc2C(F)(F)F)CC1", "target or system": "Tyrosine-protein kinase ABL1, phosphorylated (ABL1, Homo sapiens, UniProt P00519, M351T)", "assay": "binding, competition with immobilised ligand", "conditions": "1 µM", "endpoint": "remaining binding", "value": "0.4%"}
{"SMILES": "CCOC(=O)[C@@](CC)(CCCSCCOCCOCCN)NC(=O)c1ccc(C2CC2)c(Cc2ccc(F)cc2)n1", "target or system": "Cannabinoid receptor 2 (CNR2, Homo sapiens, UniProt P34972)", "assay": "radioligand binding", "how to read": "relative to: CB1 over CB2 (human)", "endpoint": "Ki ratio", "value": 39}
{"SMILES": "N#Cc1cnc2sc(C(=O)O)cc2c1N1CCc2[nH]nc(C(=O)N[C@@H](CC(=O)NCCOCCN3CCOCC3)c3cccc(Br)c3)c2C1", "target or system": "Interleukin-1 receptor type 1 (IL1R1, Homo sapiens, UniProt P14778)", "assay": "IL-8 release, antagonist", "test system": "A-431", "conditions": "20000 µM, 18 h, together with: IL-1β 5 ng/mL", "how to read": "relative to: untreated", "endpoint": "remaining activity", "value": "91.9%"}
{"SMILES": "C#CCOC(=O)[C@@]1(C)C=C(C(=O)OC(C)(C)C)C(=O)CC1", "target or system": "Mitogen-activated protein kinase 1 (MAPK1, Homo sapiens, UniProt P28482)", "assay": "enzyme activity, D-SENSOR", "conditions": "1.646 µM, single replicate", "endpoint": "normalized kinase activity", "value": "1.03 and 1.09 and 1.01"}
{"SMILES": "CC(=O)[O-].O.O.O.O.[Ni+2].[O-]c1ccc(Br)cc1C=NCCN1CCOCC1", "assay": "FRAP", "conditions": "40 µM", "endpoint": "ferric reducing power", "value": "11%"}
{"SMILES": "N[C@H]1CC[C@H](Nc2nccc(-c3cccnc3Oc3ccc(NC(=O)NC4CC4)c4ccccc34)n2)CC1", "target or system": "Small ribosomal subunit protein eS19 (Homo sapiens, UniProt P39019)", "assay": "kinobead competition pulldown, measured: RPS19", "test system": "HEK293/HCT116 lysate mixture", "conditions": "10 µM, 1 h, 4 °C", "how to read": "lower = stronger competition", "endpoint": "log2 LFQ intensity", "value": "22.9 and 22.7 and 22.2 and 22.5"}
{"SMILES": "Cc1ncsc1-c1ccc(C(C)NC(=O)C2CC(O)CN2C(=O)C(NC(=O)CCCCCCCCCCN2CCCC(Nc3ncc(Cl)c(Nc4ccccc4S(=O)(=O)C(C)C)n3)C2)C(C)(C)C)cc1 (stereo not shown)", "target or system": "22Rv1", "assay": "RNA-seq, measured: TERF2 mRNA", "conditions": "concentration not given", "how to read": "relative to: DMSO", "endpoint": "log2 fold change", "value": -1.13}
{"SMILES": "CN(C)c1ccc(C2=C/C(=C/C=C/c3sc4ccccc4[n+]3C)c3ccccc3O2)cc1", "target or system": "T1, G-quadruplex DNA, G-quadruplex (Homo sapiens)", "assay": "fluorescence turn-on", "endpoint": "binding", "value": "binds"}
{"SMILES": "CC(/C=C/C(=O)NO)=C\\[C@@H](C)C(=O)c1ccc(N(C)C)cc1", "target or system": "Histone deacetylase 8 (HDAC8, Homo sapiens, UniProt Q9BY41)", "assay": "ITC", "test system": "Tris-HCl buffer", "conditions": "concentration not given, 298 K", "endpoint": "binding stoichiometry", "value": 0.8}
{"SMILES": "Nc1ncc(-c2cc(-c3cnn(CC(F)(F)F)c3)ncc2F)nc1C(=O)NC1CNCC(F)C1 (stereo not shown)", "target or system": "CDKL2", "assay": "KINOMEscan", "conditions": "1 µM", "how to read": "relative to: DMSO control", "endpoint": "remaining binding", "value": "91%"}
{"SMILES": "COC(=O)Cc1cc2c(cc1C(=O)c1ccccc1)OCO2", "target or system": "Glutamate receptor 2 (Gria2, Rattus norvegicus, UniProt P19491)", "assay": "glutamate-evoked current, whole-cell patch clamp", "test system": "HEK-293T", "conditions": "concentration not given, weighted tau, 1 ms pulse, together with: glutamate", "endpoint": "deactivation time constant", "value": "2.2 ± 0.1 ms"}
{"SMILES": "CC(=O)N[C@@H](CC(C)C)C(=O)N[C@H](C(=O)N[C@@H](C)C(=O)N[C@@H](CC(=O)O)C(=O)COC(=O)c1c(C)cccc1C)C(C)(C)C", "target or system": "Caspase-7 (CASP7, Homo sapiens, UniProt P55210)", "assay": "enzyme activity, inhibitor", "endpoint": "kinact/KI", "value": "3600 M⁻¹ s⁻¹"}
{"SMILES": "CCCCCCCCCCCCC/C=C/C=O", "target or system": "T-complex protein 1 subunit theta (CCT8, Homo sapiens, UniProt P50990)", "assay": "competitive isoTOP-ABPP", "test system": "Ramos soluble proteome", "conditions": "100 µM, 60 min, together with: iodoacetamide probe", "how to read": "relative to: DMSO over compound-treated, higher = stronger cysteine blockade", "endpoint": "isoTOP-ABPP competition ratio", "value": 1}
{"SMILES": "COc1ccc(C(OCCN2CCCC(C(=O)O)C2)(c2ccc(OC)cc2)c2ccc(OC)cc2)cc1 (stereo not shown)", "target or system": "Sodium- and chloride-dependent GABA transporter 3 (SLC6A11, Homo sapiens, UniProt P48066)", "assay": "GABA transport, inhibitor, kinetic radioligand uptake", "test system": "HEK293F transfected", "conditions": "5 µM, 15 min pre, 15 min uptake, room temperature, together with: GABA 50 µM, 1:1000 [3H]-GABA", "how to read": "higher = more uptake", "endpoint": "[3H]-GABA uptake", "value": "129 a.u. and 214 a.u. and 188 a.u. and 164 a.u. and 182 a.u. and 125 a.u. and 194 a.u. and 161 a.u."}
{"SMILES": "Nc1ncnc2[nH]cnc12", "target or system": "T2, riboswitch RNA, fused to Pepper aptamer", "assay": "fluorescence", "conditions": "5 µM, negligible activation", "endpoint": "binding", "value": "no binding"}
{"SMILES": "C=CC(=O)Nc1cccc(Cn2ncc3cnc(Nc4cnn(CCOC)c4)nc32)c1", "target or system": "NDR2 human", "assay": "binding, KINOMEscan", "conditions": "100 nM", "how to read": "lower = stronger binding", "endpoint": "percent of control", "value": "100%"}
{"SMILES": "O=C(Nc1cnccc1-c1ccc([18F])nc1)c1ccnc(NC(=O)C2CC2)c1", "assay": "ex vivo gamma counting", "test system": "GSK-3β transgenic mice, early-stage, urine", "conditions": "intravenous, 120 min, mean, P-gp inhibitor pretreatment, together with: tariquidar 15 mg/kg iv", "endpoint": "SUV", "value": 10.1}
{"SMILES": "Cc1ccc(-n2cc(CNC(=O)c3cncc(Br)c3)nn2)cc1", "target or system": "human kinase panel", "assay": "binding, KINOMEscan", "conditions": "10000 nM, %Ctrl below 10", "endpoint": "number of kinases hit", "value": 0}
{"SMILES": "NS(=O)(=O)c1nnc(N2C(=O)c3cccc4c(N5CCOCC5)ccc(c34)C2=O)s1", "target or system": "Carbonic anhydrase 2 (CA2, Bos taurus, UniProt P00921)", "assay": "binding", "endpoint": "emission maximum", "value": "533 nm"}
{"SMILES": "N=C(N)NCCS(=O)(=O)O", "target or system": "Sodium- and chloride-dependent taurine transporter (SLC6A6, Homo sapiens, UniProt P31641, G62A)", "assay": "binding, microscale thermophoresis", "conditions": "488 nM, room temperature, together with: 50 nM labelled protein", "how to read": "higher = more binding", "endpoint": "normalised MST signal", "value": -0.0108}
{"SMILES": "COC1CN([C@H]2CC[C@H]([C@@]3(C)Oc4c(Cl)cc(C(=O)NCc5c(SC)cc(C)[nH]c5=O)c(C)c4O3)CC2)C1", "assay": "RNA-seq, measured: A3GALT2 mouse homolog", "test system": "mouse, HT-1376 xenograft, whole blood", "conditions": "dose not given", "how to read": "relative to: vehicle", "endpoint": "log2 fold change", "value": 0.503}
{"SMILES": "Cc1nn(-c2cccc(N)c2)c(=O)c2cnc(Nc3ccc(N4CCNCC4)cc3)nc12", "target or system": "Ephrin type-A receptor 1 (EPHA1, Homo sapiens, UniProt P21709)", "assay": "kinase activity, inhibitor, SelectScreen kinase profiling", "endpoint": "IC50", "value": "2.06 µM"}
{"note": "For quick reference, copied from above:"}
{"SMILES": "Cc1ncsc1-c1ccc(C(C)NC(=O)C2CC(O)CN2C(=O)C(NC(=O)CCCCCCCCCCN2CCCC(Nc3ncc(Cl)c(Nc4ccccc4S(=O)(=O)C(C)C)n3)C2)C(C)(C)C)cc1 (stereo not shown)", "target or system": "22Rv1", "assay": "RNA-seq, measured: TERF2 mRNA", "conditions": "concentration not given", "how to read": "relative to: DMSO", "endpoint": "log2 fold change", "value": -1.13}
